Measured values collected from several papers.
Lines come from different studies, so protocols differ. Values joined by “and” are separate records of one study, mostly repeats; a detail may differ. ± marks the error that the study gave.
B1: interferon gamma; sequence looked up; chain QDPYVKEAENLKKYFNAGHSDVADNGTLFLGILKNWKEESDRKIMQSQIVSFYFKLFKNFKDDQSIQKSVETIKEDMNVKFFNSNKKKRDDFEKLTNYSVTDLNVQRKAIHELIQVMAELSPAAKTGKRKRSQMLFRG
B2: recombinant human GDNF; sequence looked up; chain SPDKQMAVLPRRERNRQAAAANPENSRGKGRRGQRGKNRGCVLTAIHLNVTDLGLGYETKEELIFRYCSGSCDAAETTYDKILKNLSRNRRLVSDKVGQACCRPIAFDDDLSFLDDNLVYHILRKHSAKRCGCI

Molecule | target or system | assay | system | setting | how to read | endpoint | value
insulin degludec | – | euglycemic clamp | healthy human volunteers, C-peptide reduction below 50%, serum | subcutaneous, 0.4 IU/kg | relative to: baseline | C-peptide reduction | 35.2 ± 12.1%
difelikefalin | – | – | Japanese haemodialysis patients with pruritus | intravenous, 1.0 µg/kg, 8 weeks | – | PGIC much worse | 1.7%
semaglutide | – | – | Wistar rat, male, diet-induced obese, blood, fasted | subcutaneous, dose not given, after 10 weeks treatment | – | serum HDL cholesterol | 29 ± 1 mg/dL
Pam2CSK4 | – | – | APP/PS1 mouse, cortex | local injection, dose not given, unit not given | relative to: injected over adjacent side | GFAP level | 1.12 and 0.414
RQLRNWTSAEGLLRVHARL | – | Luminex, measured: IFN-γ | peptide, NOD-DR3 mice, peptide-immunized, splenocytes | dose not given, 48 h | – | interferon gamma secretion | > 1000 pg/mL
icatibant | – | paw oedema | mouse | intraperitoneal, 1 mg/kg, first hour, together with: bradykinin | – | inhibition | 65.5 ± 3.61%
KCNTATCATQRLANFLVHSSNNFGPILPPTNVGSNTY (Pramlintide; sequence looked up) | – | Y maze | peptide, Tg2576 mouse | intraperitoneal, dose not given, 10 weeks daily | – | spontaneous alternation | 64 ± 1.34%
cotadutide | – | metabolomics, measured: hepatic cysteine | ob/ob mice on AMLN diet, NASH model, liver | dose not given | – | metabolite level | 0.63 ± 0.15 scaled intensity
heparin sodium | – | – | human | intravenous infusion, 8 IU/kg/h, day 1 to 6 | – | aPTT AUEC | 5270 h·s
maraviroc | – | Western blot | HIV-infected mice, frontal cortex | i.p., 120 mg/kg twice daily, 3 weeks post infection | relative to: HIV-infected untreated mice, decrease | protein level | 1.95 fold
YGRKKRRQRRRTPQRSGSISNYRSCQR | – | – | peptide, db/db mice, primary hepatocytes | intraperitoneal, 15 nmol/g/day, 6 days | – | shortened mitochondria | 85.2%
B1 (interferon gamma) | – | proteinuria inducer | FVB mice | dose not given, 0 h | – | urine albumin/creatinine ratio | 47.9 and 15.9 and 16.1 and 33.4 and 21.5 and 17.4 and 17.8 and 16.9
human FABP5 | PP6C (human) | co-immunoprecipitation, IP-MS | CYB5R4 knockout cells | concentration not given | relative to: CYB5R4 knockout over parental | log2 fold change | 1.09
colistin | Acinetobacter baumannii | broth microdilution | clinical isolate RKI-No_596/16 | – | – | MIC | > 64 µg/mL
human nucleophosmin | CYB5R4 knockout human cells | PP6 interaction, 3xFLAG-PP6C IP-MS | – | concentration not given | relative to: CYB5R4 KO over parental | log2 fold change | -0.38
liraglutide | – | – | Wistar rat, female, diet-induced obese | subcutaneous, increasing doses once daily, 28 days | – | body weight reduction | -6.8%
B2 (recombinant human GDNF) | – | CNN cell counting, measured: tyrosine hydroxylase | rat, 6-OHDA lesion model, substantia nigra pars compacta, lesioned side | 3 µg/24 h | – | TH-immunoreactive cell count | 431 ± 112

For quick reference, copied from above:
Molecule | target or system | assay | system | setting | how to read | endpoint | value
human nucleophosmin | CYB5R4 knockout human cells | PP6 interaction, 3xFLAG-PP6C IP-MS | – | concentration not given | relative to: CYB5R4 KO over parental | log2 fold change | -0.38
liraglutide | – | – | Wistar rat, female, diet-induced obese | subcutaneous, increasing doses once daily, 28 days | – | body weight reduction | -6.8%
